Experimental data from different studies.
Each numbered part is a random draw from the data of one study; scales do not carry over between parts.

Series 1
Target: Ras GTPase-activating protein-binding protein 1, full length (G3BP1, Homo sapiens, UniProt Q13283)
UniProt Q13283, sequence (whole entry, looked up): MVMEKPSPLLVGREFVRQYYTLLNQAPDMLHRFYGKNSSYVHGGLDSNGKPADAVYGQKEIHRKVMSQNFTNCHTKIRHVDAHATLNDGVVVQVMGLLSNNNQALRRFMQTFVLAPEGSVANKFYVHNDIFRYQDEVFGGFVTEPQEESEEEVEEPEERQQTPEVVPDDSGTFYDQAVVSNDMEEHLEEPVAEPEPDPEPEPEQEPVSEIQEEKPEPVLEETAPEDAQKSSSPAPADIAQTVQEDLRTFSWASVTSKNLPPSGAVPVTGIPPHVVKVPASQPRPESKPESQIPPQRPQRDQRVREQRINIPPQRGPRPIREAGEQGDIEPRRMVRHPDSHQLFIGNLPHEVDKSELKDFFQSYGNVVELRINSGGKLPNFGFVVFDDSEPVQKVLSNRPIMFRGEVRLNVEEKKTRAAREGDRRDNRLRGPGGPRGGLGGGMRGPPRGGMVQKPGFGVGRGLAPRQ
Technique: RNA Bind-n-Seq
Molecule type: RNA
Sample: in vitro
Tested at: 200 nM
Setting: whole 134-nt RNA, ends assumed
Together with: 150 mM KCl
Relative to: input library
Reading: higher = stronger binding
Constant ends, left off below: GGGAGUUCUACAGUCCGACGAUC … UGGAAUUCUCGGGUGUCAAGG
| Sequence | log2 enrichment |
| --- | --- |
| UAACUUUAGAGGAGGAUCUGAUGGAUAUGGCAGUGGACGUGGAUUUGGGGAUGGCUAUAAUGGGUAUGGAGGAGGACCUGGAGAUGGCAA | 0.286 |
| CACAGACAACACGCACCCACACAGACACAGAGGGAAGGGGUUGGGAUGGGGACAGGGAAAACAGCAGGGCGGGGUAGGACCCCAGCCCCU | 1.48 |
| UAACUUUAGAGGAGGAUCUGAUGGAUAUGGCAGUGGACGUGGAUUUGGGGAUGGCUAUAAUGGGUAUGGAGGAGGACCUGAAGGUGGCAA | 0.0947 |
| UCAAGUCCUGUGCUACACAUCGUAUGUACCGAAUCGGUUGGGGUUGGGGUUGGGAAAGUAUUAUGUUACGCCGUUCGGAUCUGCACUUCC | 0.922 |
| CUCAAGUCCUGUGCUACACAUCGUAUGUACCGAAUCGGUGGUUUUUGGUUUGGAAAGUAUUAUGUUACGCCGUUCGGAUCUGCACUUCCA | -0.577 |
| AGUCCUGUGCUACACAUCGUAUGUACCGAAUCGGGAGGGUUUUUUUGGGUUUUUGGGAAAGUAUUAUGUUACGCCGUUCGGAUCUGCACU | -0.393 |
| CUCAAGUCCUGUGCUACACAUCGUAUGUACCGAAUCGGAGGAAAAAGGAAAGGAAAGUAUUAUGUUACGCCGUUCGGAUCUGCACUUCCA | -0.486 |
| AGUCCUGUGCUACACAUCGUAUGUACCGAAUCGGGAAAAAAAGGGAGGGAAAAAGGGAAAGUAUUAUGUUACGCCGUUCGGAUCUGCACU | -0.208 |
| UGGCCCUGGUGGCAUGCGGGGAGGAAGAGGUGCCCUCAUGGAUCGUGGUGGUCCCGGUGGAAUGUUCAGAGGUGGCCGUGGUGGAGACAG | 0.414 |
| GUCCUGUGCUACACAUCGUAUGUACCGAAUCGGGCCCCCCGGCCCCCCGGCCCCCCGGAAAGUAUUAUGUUACGCCGUUCGGAUCUGCAC | -0.0686 |
| GGGGGUGACCGCCGGAGCGCGGCGUGAGCCCUCCCCCUUGGGAUCCCGCAGCUGACCAGUCGCGCUGACGGACAGACAGACAGACACCGC | -0.555 |
| CCUGUGCUACACAUCGUAUGUACCGAAUCGGGGAAAAAGGGGAAAGGGGAAAAAAAGGGGAAAGUAUUAUGUUACGCCGUUCGGAUCUGC | 0.253 |
| UGGGAGGUGGAUUUUGUUUAUUUUUUUAGCUCAUUUCCAGGGGUGGGAAUUUUUUUUUAAUAUUUGUCAUGAAUAAAGUUGUUUUUGAAA | 0.0322 |
| CACAGACAACAUGCACCCACACAGACACAGAGGGAAGGGGUUGGGAUGGGGACAGGGUGCACAGCAGGGCGGGGUAGGACCCCAGCCCCU | 1.86 |

Series 2
Target: Interferon regulatory factor 5, full length, phosphomimetic (IRF5, Homo sapiens, UniProt Q13568-2, residues 1-514, S451D/S453D/S456D/S462D)
Technique: protein-binding microarray
Molecule type: double-stranded DNA, one strand shown
Sample: in vitro
Tested at: 940 nM top
Setting: 60-bp whole probe
Together with: salmon DNA 0.4 mg/ml
Relative to: random background probes
Reading: higher = stronger binding
Constant ends, left off below: GCCTAGCAC … GTCTTGATTCGCTTGACGCTGCTG
| Sequence | fitted relative affinity |
| --- | --- |
| TTAGGTTTGGGGACTGGGTTAGTGCTA | -0.161 z-score |
| GACGGTCTCGCTCTCGGGACGTGCTAG | 1.68 z-score |
| GACGATCTCAGTCTCCAGACGTGCTAG | 0.0556 z-score |
| TTAGGTCTCGCTTTCGGTTAGTGCTAG | 4.92 z-score |
| GACGATATCAGACTGGCGACGTGCTAG | -0.233 z-score |
| TTAGGACTGGGACTGCGTTAGTGCTAG | -0.633 z-score |
| TCAGGTTTCCAAATTGTACTGTGCTAG | 0.0261 z-score |
| GACGGACTGCCTCTCCTGACGTGCTAG | -0.338 z-score |
| ACTCTAATCTCACTCTGTCCGTGCTAG | 1.48 z-score |
| GACGGTATCCTCCTGCTGACGTGCTAG | 0.57 z-score |
| TTGGAACTGGGGTTTCGATTAGTGCTA | 4.92 z-score |
| TTAGGTTTCGGGTATAGGTTAGTGCTA | 10.5 z-score |
| GACTAACTGAGACTGGAGACGTGCTAG | 0.0272 z-score |
| CGGCCTCTAGGTTTTCTGAAGTGCTAG | -0.388 z-score |
| TCAGGTCTTCACTTGGCACTGTGCTAG | -0.173 z-score |
| GACGGTATCGGCTATCGGGACGTGCTA | 5.06 z-score |
| CTGTGGGAGGCCCGCGGGAGGTGCTAG | -1.25 z-score |
| CTAGGTATCCTTCTCCTTTAGTGCTAG | 0.542 z-score |
| GACGGTTTCGGTATCAGGACGTGCTAG | 13.6 z-score |
| TTAGGTTTCCTAGTGCTTTAGTGCTAG | 0.468 z-score |
| CTAGAACTGAGACTGGATTAGTGCTAG | -0.128 z-score |
| TTAGATATCAGTATCGAGTAGTGCTAG | 1.62 z-score |
| GACGGTCTCAGTTTCGAGACGTGCTAG | 4.67 z-score |
| TCATATATGACAATGATACTGTGCTAG | 0.18 z-score |
| TTATGTATCGGACTGGGTTAGTGCTAG | 1.11 z-score |

Series 3
Target: RNA binding protein fox-1 homolog 2, RRM domain, GST-SBP tag (RBFOX2, Homo sapiens, UniProt O43251-10, residues 100-194)
Technique: RNA Bind-n-Seq
Molecule type: RNA
Sample: in vitro
Tested at: 365 nM
Setting: natural RNA segment, single round, ends assumed
Relative to: no-protein control
Reading: higher = stronger binding
Constant ends, left off below: GGGAGUUCUACAGUCCGACGAUC … UGGAAUUCUCGGGUGCCAA
Construct (chain): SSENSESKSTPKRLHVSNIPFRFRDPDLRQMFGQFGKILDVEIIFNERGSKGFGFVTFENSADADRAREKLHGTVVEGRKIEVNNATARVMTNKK
| Sequence | RBNS enrichment (R) |
| --- | --- |
| UUAAUCAGGCUGUCUUGGAAGGGUAUUGUAUUGGGAGACAAGGGGCGGUGGUGGACCUCACCUUCAAUCCAAGUUUUCAAAGAUAUUUUCUCAAUAACUCUAAAAGGGAG | 0.323 |
| UGAGAAGCAGCUGAGUGAGGCAUGUUUUGACAGGAGGAACCCAGUUCUUUUCACUGUUGGUAUUUAUAGCACCUACCUUCAGAUUUUUCAGUAUGAUGUUUCUAUUUUCC | 0.348 |
| UUAAAUAAUUUAAUUGCAUUAUAGCAUAUAAACUAUAAAUGAAAAUGAUCUUUGUCUUUCCUUUAUCUUGCUUUAUCCUCUUAUCCAAUUCUAGACUCUUAAAUAAUCAC | 0.693 |
| UUCGAAGAUGGGUUGUGGCUGGGUAUUCCCUCCCAUGGUGUUUCCUCUGGGAUGCUCUUCAUUAUCUCAAUGCCUGUGCCAUGAAGAUAGAAAACUGUAAGCUAACAUUU | 0.629 |
| AGCAAGGUGCCGCUGAUCCAGCGUGGCAGUGCCAACGGCCUCUGAUCCACCCAUGUGCUGCCCGCCUGCCCACCCGCCUUUUAUAAACCUCUAAUUUAUUUUGUUGAAUU | 0.693 |
| CCACGUGUAAGUCUCCAUUGCAGAAUUGUCGUGCUUUGAGAAAACACCUGAGGCAGUGUGGGAGUUGAACGACCCUGCUGUCCUUUUUAACCUGUGUUGUCCUAGACCCU | 0.257 |
| AGGGGCUGGGAAGGGCUACUGAAGGCCCCAUUCUCCCACAGGAUGGUGAGGCUGGGAGGAGGAAGACUGAGGUAGAGAUUCCAGGCCCUGGCAUAAGCUGAAUCCCAAAU | 0.83 |
| GUCCCAACAGGAGUCAGGAAGAGGUUUGAUUAUAACCAAGAAAACUCACUAUGCUAGGAAUAGACUGUGUGCACCAGUCCCAGACACUUGGCAGAAGUGUAGCAGCGUUA | 0.537 |
| AGAAAGUGCAUCAGUGAAGAGAUGCAAGACUUUCAACUGACUGGCAAAAAGCAAGCUUUAGCUUGUCUUAUAGGAUGCUUAGUUUGCCACUACACUUCAGACCAAUGGGA | 0.712 |
| CAGCUAUGCCCAGUGCUGCAUGGGACCCAUGUCUCCUGGGACAGAGGCCAUCUCUCUUCCAGAGAGAGGCAGCAUUGGCCCACAGGAUAAGCCUCAGGCCCUGGGAAACC | 0.311 |
| CCAGAAUGUAAGAGAGUUGUCUAAGCAGCAGCUGAGAGAGAGCGGAGCCUAUUUCUAGCCACUCCUGUUGACAGUGCACCUGAAGGGCUGGGAUGCGUUUUUCUUGGUGU | 1.26 |
| AAAUCUGUGUAUAAUUAGCAAUAACAGAACUAAACCAUUGUUUAGUUGCUAAUCAUAUGUUGCUUUAUCCAUAUGCUGUAUGACUCCAUAACAUGUAUGACUUUAAAUGG | 3.52 |

Series 4
Target: Histone acetyltransferase KAT6A, winged helix 1, GST fusion (KAT6A, Homo sapiens, UniProt Q92794, residues 1-85)
Technique: protein binding microarray
Molecule type: double-stranded DNA, one strand shown
Sample: in vitro
Tested at: not given
Setting: 8-mer, flanks averaged, mean of 2 arrays, mostly near background
Relative to: not given
Reading: higher = stronger binding
Target sequence (chain): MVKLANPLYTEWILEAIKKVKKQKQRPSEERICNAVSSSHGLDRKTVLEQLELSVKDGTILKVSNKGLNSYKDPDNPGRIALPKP
| Sequence | E-score |
| --- | --- |
| GATTCGAA | -0.088 |
| CACCACAA | -0.274 |
| ACTAGCGA | 0.0887 |
| CAATGTAC | -0.0505 |
| GCCGCGGC | 0.479 |
| CTTGCTGC | -0.0678 |
| ATGTCAAT | -0.0167 |
| CATGGACA | -0.287 |
| AAGAGTGC | 0.00587 |
| CACACACC | -0.137 |
| CACATGGA | -0.187 |
| AGCTTTTG | -0.145 |
| TCATAACA | -0.214 |
| GGTGTTAC | 0.0309 |
| AAGTTAGT | -0.00383 |
| CAGCGAGA | 0.0338 |

Series 5
Target: Sal-like protein 4, full length isoform B (SALL4, Homo sapiens, UniProt Q9UJQ4-2, residues 1-616)
Technique: universal PBM
Molecule type: double-stranded DNA, one strand shown
Sample: in vitro
Tested at: not given
Setting: 8-mer, flanks averaged, mean of replicates
Reading: higher = stronger binding
| Sequence | E-score |
| --- | --- |
| TCATCCCA | -0.00997 |
| CTGCGGTC | -0.313 |
| CTCAAGGA | -0.0228 |
| CCCCTGAG | -0.29 |
| ATTCTGTG | 0.126 |
| CGTTGAAC | -0.109 |
| AAGGTTGA | 0.179 |
| CGTGTTGC | -0.161 |
| TGCGAAAA | 0.205 |
| AACAAGCA | 0.0788 |
| GGCACCAA | -0.0423 |
| AACAAGGA | 0.164 |
| GAAGCACC | -0.21 |
| CGACCCCC | -0.301 |
| GGTGTAGA | -0.149 |
| AAGGTGCC | -0.103 |
| GTAGGTTA | 0.104 |
| AGCACGAT | 0.0353 |
| CATCGGGG | -0.141 |
| GGTAACAA | 0.23 |
| CTGCCTTA | -0.0358 |
| AAGTTTAG | 0.0966 |
| AGTATGAC | 0.215 |

Repeated from above (series 2):
| Sequence | fitted relative affinity |
| --- | --- |
| GACGATATCAGACTGGCGACGTGCTAG | -0.233 z-score |
| TTAGGTCTCGCTTTCGGTTAGTGCTAG | 4.92 z-score |
| CTAGAACTGAGACTGGATTAGTGCTAG | -0.128 z-score |
| TCAGGTTTCCAAATTGTACTGTGCTAG | 0.0261 z-score |
| GACGATCTCAGTCTCCAGACGTGCTAG | 0.0556 z-score |
| TTGGAACTGGGGTTTCGATTAGTGCTA | 4.92 z-score |
| TTATGTATCGGACTGGGTTAGTGCTAG | 1.11 z-score |
| TCAGGTCTTCACTTGGCACTGTGCTAG | -0.173 z-score |
